Measured values pooled from the literature.
Numbered parts are unrelated; each lists some results of a single study. Changes are numbered by the printed parent chain.

Study 1
Target: Sal-like protein 4, full length isoform A (SALL4, Homo sapiens, UniProt Q9UJQ4, residues 1-1053)
Sequence of UniProt Q9UJQ4 (whole entry, looked up): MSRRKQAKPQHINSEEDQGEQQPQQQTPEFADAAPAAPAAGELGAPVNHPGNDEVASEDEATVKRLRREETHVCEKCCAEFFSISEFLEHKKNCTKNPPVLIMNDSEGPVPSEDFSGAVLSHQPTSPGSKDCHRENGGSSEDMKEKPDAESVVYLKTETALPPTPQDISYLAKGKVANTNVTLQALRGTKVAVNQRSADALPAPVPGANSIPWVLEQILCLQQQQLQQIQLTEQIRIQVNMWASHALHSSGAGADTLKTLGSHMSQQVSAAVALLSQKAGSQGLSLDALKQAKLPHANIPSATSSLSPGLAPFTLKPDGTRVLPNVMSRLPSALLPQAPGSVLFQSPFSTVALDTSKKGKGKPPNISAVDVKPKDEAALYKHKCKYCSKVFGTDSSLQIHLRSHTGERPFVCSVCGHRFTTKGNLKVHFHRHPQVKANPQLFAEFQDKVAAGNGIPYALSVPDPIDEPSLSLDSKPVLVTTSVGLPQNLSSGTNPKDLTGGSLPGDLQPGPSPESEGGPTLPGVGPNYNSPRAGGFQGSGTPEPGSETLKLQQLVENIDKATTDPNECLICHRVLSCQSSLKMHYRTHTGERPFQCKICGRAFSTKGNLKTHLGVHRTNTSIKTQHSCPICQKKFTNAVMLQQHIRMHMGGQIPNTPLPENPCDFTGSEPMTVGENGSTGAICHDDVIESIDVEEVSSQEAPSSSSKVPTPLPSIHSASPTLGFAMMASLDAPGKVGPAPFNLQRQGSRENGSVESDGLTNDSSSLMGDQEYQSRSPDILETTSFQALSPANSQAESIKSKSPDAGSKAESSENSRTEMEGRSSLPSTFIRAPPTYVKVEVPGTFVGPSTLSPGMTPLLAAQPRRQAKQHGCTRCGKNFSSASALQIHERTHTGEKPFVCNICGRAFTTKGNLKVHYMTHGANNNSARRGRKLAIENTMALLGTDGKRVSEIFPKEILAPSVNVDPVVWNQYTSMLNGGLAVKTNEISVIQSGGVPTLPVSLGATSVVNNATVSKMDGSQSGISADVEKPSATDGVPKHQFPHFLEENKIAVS
Technique: universal PBM
Molecule type: double-stranded DNA, one strand shown
Medium: in vitro
Concentration: 600 nM
Notes: 8-mer, flanks averaged, mean of replicates
Reading: higher = stronger binding
With `CCTTGGCC` the E-score was -0.298.
`ATGAGAGA` has an E-score of 0.126.
`CACACATG` has an E-score of 0.0508.
For `CAGAGTAA`, the E-score was -0.00522.
`AGGTTTGG` gave an E-score of -0.112.
With `GTATGAAA` the E-score was 0.285.
`ATTGACGA` has an E-score of 0.196.
`ATGGCCCC` gave an E-score of -0.361.
`CCGATTAC` gave an E-score of -0.115.
With `GTCTTTTA` the E-score was 0.0366.

Study 2
Target: CCNA1, cyclin fold, Cln2 fusion (human)
Technique: yeast growth competition, sequencing
Medium: yeast
Notes: weak parent motif
Reference: not given
Reading: higher = stronger binding
Starting sequence: PKN2 docking peptide (human); VSAVQKLDFSDTM; partner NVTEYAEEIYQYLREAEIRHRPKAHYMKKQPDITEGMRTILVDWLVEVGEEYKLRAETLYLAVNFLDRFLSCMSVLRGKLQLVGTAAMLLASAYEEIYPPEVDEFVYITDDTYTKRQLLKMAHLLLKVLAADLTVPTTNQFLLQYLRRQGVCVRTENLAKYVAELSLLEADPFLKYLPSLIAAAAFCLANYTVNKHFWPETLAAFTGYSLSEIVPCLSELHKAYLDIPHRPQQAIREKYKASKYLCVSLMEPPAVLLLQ
For `D11Y`, “normalised enrichment score” read -0.0149.
`D8I`: “normalised enrichment score” 0.387.
`T12H` — result for “normalised enrichment score”: 0.221.
For `D11L`, “normalised enrichment score” read 0.25.
`K6E` — result for “normalised enrichment score”: 0.0558.
`V4R` — result for “normalised enrichment score”: 0.486.

Study 3
Target: Histone acetyltransferase KAT6A, winged helix 1, GST fusion (KAT6A, Homo sapiens, UniProt Q92794, residues 1-85)
Technique: protein binding microarray
Molecule type: double-stranded DNA, one strand shown
Medium: in vitro
Concentration: not given
Notes: 8-mer, flanks averaged, mean of 2 arrays, mostly near background
Reference: not given
Reading: higher = stronger binding
Target sequence (chain): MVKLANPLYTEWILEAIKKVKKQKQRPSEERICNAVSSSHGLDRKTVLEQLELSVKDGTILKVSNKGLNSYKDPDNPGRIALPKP
For `ACAGGTGG`, the E-score was -0.189.
`ATGGTACG` has an E-score of 0.0264.
With `ATAAGGGA` the E-score was -0.167.
`GCCGGAAC` gave an E-score of 0.315.
The E-score of `CCAGCCTC` is reported as -0.258.
For `CAGCTGCA`, the E-score was -0.0599.
`ACATGGCC` has an E-score of 0.0844.
`AGTGTGAA` has an E-score of -0.207.
The E-score of `GTAGACAC` is reported as 0.034.

Single results of other studies
`PhoQ, residues 284 288 289 292 302 303 QWGLFV` gave a fold induction of 7.02 (PhoP, residues 12 14 15 18 19 IFFTR (Escherichia coli, UniProt P23836); Sort-seq, item: YFP reporter; E. coli; PhoQ-PhoP variant library, added: 10 µM Mg2+; reference: high Mg2+ state, higher = stronger signaling).

Some of these lines once more (study 1):
`ATGGCCCC` gave an E-score of -0.361.
With `GTCTTTTA` the E-score was 0.0366.
`AGGTTTGG` gave an E-score of -0.112.
